Results from different studies.
Compare with care: the assays were run in different laboratories.

Cc1cn([C@H]2O[C@@H](CO[P@@](=O)(N[C@@H](C)C(=O)OC(C)C)Oc3ccccc3)[C@H](O)[C@H]2F)c(=O)[nH]c1=O
patients with any TEAE (human; oral, 25 mg once daily, 28 days): 60%

C=CC(=O)Nc1cc(Nc2nccc(Nc3cc(Cl)c(F)cc3C(C)(C)O)n2)c(OC)cc1N1CC[C@@H](N(C)C)C1
patients with dizziness (human patients; oral, 300 mg, treatment-emergent adverse events): 9.8%

Cn1cncc1-c1c(F)cncc1NC(=O)c1c(N)nn2cc(F)cnc12
patients with anaemia DLT (human patients; oral, 220 mg once daily, 21 days, 2 weeks on 1 week off): 33%

O=C1Nc2cc3[nH]nc(-c4ccncc4)c3cc2CN1Cc1ccccc1
patients with vomiting (CTCAE v4.03; human, relapsed or refractory advanced solid tumours; intravenous, 0.45 mg/kg, pooled schedules): 0%

C[C@@H]1OC(=O)NN=C1c1ccc(-c2ccc(F)cc2)c(C(F)(F)F)c1
patients with adverse event (phase I trial, measured: Presyncope worst grade 2; human patients; dose not given, all dose groups): 20%

N[C@@H]1c2ccccc2OC12CCN(c1cnc3c(N4CCCc5ncccc54)n[nH]c3n1)CC2
patients with treatment-emergent adverse event (measured: Thrombocytopenia; human advanced or metastatic solid tumours; oral, 60 mg once daily, phase Ia pooled cohort): 20%

Cn1nc(NS(C)(=O)=O)c2c(Cl)ccc(-n3c([C@H](Cc4cc(F)cc(F)c4)NC(=O)Cn4nc(C(F)F)c5c4C(F)(F)[C@@H]4C[C@H]54)nc4nc(OCCC(F)(F)F)ccc4c3=O)c21
patients with laboratory abnormality (measured: LDL cholesterol grade 3 increase; human; 400 mg once daily, powder in bottle): 0%

COc1ncnn2ccc(-c3cnc4nc(C)n(Cc5nnc([C@@H](C)F)o5)c4c3)c12
patients with stomatitis (human; oral, dose not given, grade 2): 0%

CN[C@@H](C)C(=O)N[C@H]1CN(S(=O)(=O)c2cccc(S(=O)(=O)N3CC[C@H]4CC[C@@H](C(=O)NC(c5ccccc5)c5ccccc5)N4C(=O)[C@@H](NC(=O)[C@H](C)NC)C3)c2)CC[C@H]2CC[C@@H](C(=O)NC(c3ccccc3)c3ccccc3)N2C1=O
patients with any TRAE (human, advanced solid tumours; intravenous, 7 mg weekly, CTCAE version 4.0): 0%

CN(C)C(=O)c1cc2cnc(Nc3ccc(N4CCNCC4)cn3)nc2n1C1CCCC1
patients with adverse event (measured: Pulmonary toxicity, AESI; human, HR+/HER2− advanced breast cancer; oral, dose not given, all grades, CTCAE v4.03): 26.6%

C[C@]1(O)C[C@@](N)(c2ccc(-c3nc4n(c3-c3ccccc3)COc3ccncc3-4)cc2)C1
patients with grade ≥3 TEAE (human, advanced or metastatic solid tumours; 20 mg once daily, phase I dose escalation): 100%

Excerpt of the above:
N[C@@H]1c2ccccc2OC12CCN(c1cnc3c(N4CCCc5ncccc54)n[nH]c3n1)CC2
patients with treatment-emergent adverse event (measured: Thrombocytopenia; human advanced or metastatic solid tumours; oral, 60 mg once daily, phase Ia pooled cohort): 20%
